# Results from different studies.
# Compare with care: the assays were run in different laboratories. Values joined by “and” are separate records of one study, mostly repeats; a detail may differ. ± gives the spread as reported.
Compound,test,test system,conditions,scale,endpoint,result
CCn1c2ccccc2c2cc(C(O)c3cccc4ncccc34)ccc21 (centres unmarked),cleaved caspase-3 staining,mouse PDGFB-driven RCAS/tv-a glioma model,"dose not given, end stage",,apoptotic cells,no effect
COc1ncc(-c2nc3c(n2C(C)C)[C@H](c2ccc(Cl)cc2)N(c2cc(Cl)cn(C)c2=O)C3=O)c(OC)n1,International Working Group criteria,human acute myeloid leukemia patients,"oral, 150 mg, response Unknown, high-dose, other doses",,best overall response,0%
N#Cc1ccc2c(c1)[C@H]1CCCN(C(=O)c3ccc4[nH]cnc4c3)[C@H]1C2,refers to: HDL,human,"20 mg once daily, day 28, adjusted mean",baseline: placebo,change from baseline,-4.36 mg/dL
NC/C(=C\F)COc1cccc(Cn2c(=S)[nH]c(=O)c3[nH]cnc32)c1,,"Mus musculus, carrageenan air pouch exudate","30 mg/kg, 12 h, λ-carrageenan-induced oedema",,exudate volume,2.9 mL and 3 mL and 3.2 mL and 2 mL
O=C(NCc1ccc(CNS(=O)(=O)c2ccccc2)cc1)c1c(Cl)cc(Cl)cc1Cl,ear oedema,mouse,"10 mg/kg, together with: xylene",,inhibition,no effect
CC(C)NCC(O)c1ccc(O)c(O)c1 (centres unmarked),,"ventricular cardiomyocytes, C57BL/6 mouse","dose not given, 0.16 s",,sarcomere length,1.54 µm
c1ccc(-c2n[nH]cc2-c2ccnc3ccccc23)nc1,"kinase binding, competitor, MIB/MS competition, refers to: GIN4",Candida albicans cell lysate,100 nM,baseline: DMSO,log2 fold change,1.34
N#Cc1ccc(Oc2ccc3c(c2)COB3O)cc1,,"Balb/c mice, oxazolone atopic dermatitis","day 23, unit not given",baseline: vehicle,ear thickness difference,-0.144
CCCCC1(CCCC)CN(c2ccccc2)c2cc(SC)c(OCC(=O)N[C@@H](C(=O)NCC(=O)O)c3ccccc3)cc2S(=O)(=O)C1,refers to: 7α-hydroxy-4-cholesten-3-one,"human, plasma","5 mg once daily, day 7",,plasma C4,64.5 ng/mL
CCOc1cc([C@@H](CS(C)(=O)=O)N2C(=O)c3cccc(NC(C)=O)c3C2=O)ccc1OC,,"Balb/c mice, oxazolone atopic dermatitis","day 23, unit not given",baseline: vehicle,ear thickness difference,-0.158
C[C@@H](O)CCOC(=O)C[C@@H](C)O,refers to: Arg,"human, plasma","60 min, log2-transformed values",,metabolite level,6.39 ± 0.28 µmol/L
COc1cc2cc(-c3ccc(CC(=O)Nc4cc(C(C)(C)C(F)(F)F)no4)cn3)cnc2cc1OC,RECIST v1.1,human RET-altered solid tumours,"11 50 mg tablets, phase I",,best overall response SD,78%
NC(=O)c1cnc2[nH]ccc2c1N[C@@H]1[C@@H]2CC3C[C@H]1C[C@@](O)(C3)C2,"CD4+ effector memory T cells, flow cytometry","Caucasian humans, peripheral blood",20 mg single dose,baseline: baseline,percent change,0.03%
O=C(OC(C(F)(F)F)C(F)(F)F)N1CCN(Cc2cccc(Oc3ccccc3)c2)CC1,PET,"rhesus monkey, striatum","intravenous, 0.1 mg/kg, pretreatment blocking, together with: [18F]T-401",,tracer distribution volume,6.41 mL/cm3
Cc1n[nH]c2ccc(-c3cc(OC[C@@H](N)Cc4ccccc4)cnc3-c3ccoc3)cc12,"kinase binding, competitor, MIB/MS competition, refers to: KSP1",Candida albicans cell lysate,10 µM,baseline: DMSO,log2 fold change,-0.384
CC(C)[C@H](NC(=O)[C@H](Cc1ccc(O)cc1)NC(=O)[C@H](Cc1ccc(O)cc1)NC(=O)[C@@H]1CCCN1C(=O)[C@H](CCC(=O)O)NC(=O)[C@H](CCC(=O)O)NC(=O)[C@H](Cc1c[nH]c2ccccc12)NC(=O)[C@@H]1CCCN1C(=O)[C@@H](NC(=O)[C@H](CCC(N)=O)NC(=O)c1ccc2c(c1)C(=O)OC21c2ccc(O)cc2Oc2cc(O)ccc21)C(C)C)C(=O)N[C@H](C(=O)N[C@@H](CCCCN)C(=O)N[C@@H](CCCCN)C(=O)N[C@@H](CO)C(=O)N[C@@H](CO)C(=O)NCC(=O)NCC(N)=O)C(C)C,added benefit of NERVE,"human head and neck surgery, nerves","500 mg, added benefit",baseline: white light,share of responses,0%
C[C@H](Oc1ccc(Br)cc1-c1ccon1)C(=O)O,"maximum voluntary grip contraction, handgrip dynamometry",healthy human,"50 mg, SAD",,difference from placebo,-4.97 kg
Cc1ccc(C(=O)Nc2ccnc(S(N)(=O)=O)c2)c(N2CCCC(F)(F)CC2)n1,,rhesus macaque,"intravenous, 1.3 mg/kg",baseline: vehicle,capsaicin flare,decreased
C[C@H]1O[C@@H](O[C@H]2CC[C@@]3(C)[C@@H](CC[C@]4(C)[C@@H]3C=C[C@]35OC[C@@]6(CCC(C)(C)C[C@H]63)[C@@H](O)C[C@]54C)[C@]2(C)CO)[C@H](O)[C@@H](O[C@@H]2O[C@H](CO)[C@@H](O)[C@H](O)[C@H]2O)[C@H]1O,,"Mus musculus, chronic-plus-binge ethanol-fed, liver","oral, 15 mg/kg/day, 168 h, dosed for 7 days",,hepatic total cholesterol,0.0844 mmol/g protein and 0.103 mmol/g protein and 0.0815 mmol/g protein and 0.0971 mmol/g protein and 0.0972 mmol/g protein
O=C1Nc2ccccc2C1=Cc1ccccn1,ferric chloride carotid thrombosis,rat,"oral, 5.6 mg/kg, 2 h before thrombosis",,occlusion time prolongation,57.9%
N#Cc1ccn2c(-c3ccncc3)c(-c3ccc(F)cc3)nc2c1,"kinase binding, competitor, MIB/MS competition, refers to: PKH2",Candida albicans cell lysate,10 µM,baseline: DMSO,log2 fold change,-0.41
CN(C(=O)n1cnc(-c2ccc[n+]([O-])c2)c1)C1CCCCC1,refers to: PEA,"human, plasma",2.5 mg single dose,,AUC(0-t),315 ng·h/mL
C[C@@H](NC(=O)N1C(=O)[C@H](Cc2ccnc(N)c2)[C@H]1C(=O)O)C1CCCCC1,,human,"intravenous infusion, 0.3 to 2.25 mg/kg/h, 5 days",,ACT change,no effect
O=C(O)CNC(=O)Cc1ccccc1,,"ventricular cardiomyocytes, C57BL/6 mouse","dose not given, 0.456 s",,sarcomere length,1.71 µm
C=CCn1c(=O)c2cnc(Nc3ccc(N4CCN(C)CC4)cc3)nc2n1-c1ccc2c(n1)[C@@](O)(CC)CC2,,"NCI-H1299 xenograft, BALB/c nude mice","oral, 80 mg/kg once daily x 28, day 23",baseline: vehicle,tumour growth inhibition,39.7%
N#Cc1ccc2c(-c3ccncc3)c(-c3ccc(F)cc3)nn2c1,"kinase binding, competitor, MIB/MS competition, refers to: FPK1",Candida albicans cell lysate,1 µM,baseline: DMSO,log2 fold change,0.0646
Cc1oncc1C(=O)Nc1ccc(C(F)(F)F)cc1,refers to: dihydroorotate,"female CD-1 mice, blood","oral, 30 mg/kg daily, 24 h after dose 10",,DHO concentration,48.2 ± 13.4 µM
Cn1cc(Nc2nccc(-c3ccc4c(c3)CN(C3COC3)CC[C@H]4NC(=O)c3cn(C(C)(C)C)nn3)n2)cn1,refers to: sumoylation pathway,"splenic B cells, mice","30 mg/kg, IgD-activated in vivo","baseline: vehicle, direction not given",pathway activation z-score,0.5
CCCN1CCCC[C@H]1C(=O)Nc1c(C)cccc1C,,"Sprague-Dawley rat, male","intrathecal, 30 µL, 15 mM",,sensory block,100 % MPE
CSCCNc1nc(SCCC(F)(F)F)nc2c1ncn2[C@@H]1O[C@H](COP(=O)(O)OP(=O)(O)C(Cl)(Cl)P(=O)(O)O)[C@@H](O)[C@H]1O,"platelet aggregation, light transmission aggregometry","human patients, platelet-rich plasma","dose not given, 1 h, inhibition threshold 90%, together with: ADP 5 µM",,patients with inhibition above threshold,2.5%
COc1ccc2c(c1)CN(C(=O)CCN1CCC(Cc3ccccc3)CC1)CC[S@@+]2[O-],,anaesthetised Beagle dogs,"intravenous, 0.1 mg/kg, pacing cycle length 360 ms",,atrial ERP prolongation,30.4%
OC(CCN1CCCCC1)(c1ccccc1)C1CC2C=CC1C2 (centres unmarked),resting-state EEG,healthy elderly humans,"oral, 4 mg, eyes open, LS mean",,EEG Beta3-power Pz-O1,1.9 µV²
CC1(C)CCC(CN2CCN(c3ccc(C(=O)NS(=O)(=O)c4ccc(NCC5CCOCC5)c([N+](=O)[O-])c4)c(Oc4cnc5[nH]ccc5c4)c3)CC2)=C(c2ccc(Cl)cc2)C1,cell killing,"canine lymph node CD21+ B cells, dog 30",24 h,,EC50,0.059 µM
Cc1ccc(C(=O)OCc2ccc([C@@H](CN)C(=O)Nc3ccc4cnccc4c3)cc2)c(C)c1,tonometry,"NZW rabbit, magnetic bead-induced ocular hypertension","ocular, 0.02%, 26 h",,IOP,34.9 mmHg
C[C@H]1C[C@H]2CSC(N)=N[C@@]2(c2nc(NC(=O)c3ccc(OC(F)F)cn3)cs2)CO1,refers to: total Aβ,"healthy adults, plasma","40 mg single dose, 24 h post-dose",baseline: placebo,percent change from baseline,-49.1%
